# Measurements from different studies.
# Parts stem from different laboratories: compare values within a part only.

# Series 1 — technique: RNA Bind-n-Seq; form: RNA; matrix: in vitro; concentration: 365 nM; reference: no-protein control; direction: higher = stronger binding
# Target: RNA binding protein fox-1 homolog 2, RRM domain, GST-SBP tag (RBFOX2, Homo sapiens, UniProt O43251-10, residues 100-194)
# Setting: natural RNA segment, single round, ends assumed
# Shared flanks, not repeated: GGGAGUUCUACAGUCCGACGAUC … UGGAAUUCUCGGGUGCCAA
# Target sequence (chain): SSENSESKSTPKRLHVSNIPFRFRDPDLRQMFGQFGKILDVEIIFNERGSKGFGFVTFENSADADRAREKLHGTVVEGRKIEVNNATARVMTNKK
Strand,RBNS enrichment (R)
UAAUUUUUUUGGCCAAUUUAUUUUCUCCCACUUUGUCAUUAAAAUCACAUGUCUAACUGGCUCACCACAUAGUGUGCUUUGAUUGUAUUUUGGCUUUGACUCUGCCAUUU,0.797
GGAAGGGCCCAUAGCCACUUCCUCUGCUCCUGAGCAGGGCUGAAGCCGUUUGCAAGGGACUUGCUUUGCACAGUUUUGCUGUACUUUCACAUUUUAUUAUGUAGCAAGAU,0.257
CACACUUUUCUCACAUUGAGUUGUAUGCAGAAUGUAGCUUCAGAUGUAUUCAUUAUAGUUACAAUAUCCAACUAAAAAGUACGCUAUCUAGAAGUAUACCGACCAAAAUC,0.416
CUGGCUCUCAAUGCCACCUUCGUUAGGAUUCAUGAAAUGAGUCCCUGUCCUUCCUGGUCAUGCUGGCCUCCGAGGCGCGGGCUGGGAUCUGUCAGGCUGCGUAUUUAUUA,0.335
UGUGUGUGUGUACACAUAUCUGUGCCUGUGUGUCUUCCCUUGUGUCCAUAUUUAAUGUGUAAGAACAUCCCUACUCUAUCCCAGACACGACCAUUUCACCCAUUGCCCCA,0.742
UGUGGGAGAGUCAGCCCUGCCCCUCCUCUCCCAUGUGACCCUGUCAUAGUUUGCAGUGUCCUAGGUAGCACUUGGGGAGCCAGGUGCAUUCAGGGUCAGUAGGGAGGACA,0.904
UAUCCUACAGAAAUUUAAGUAGCUACUGCUUCUCCUGAAAGCCCAAGUUGAAAAUGGGACCACAGGGGCACAGGGCUACUGACCCUCACAGGGCAUGCCAGCGUUAACAC,0.428
CCCAGCUGUGGCGGGAGGUGCAGAGCAGAGGGCUUUAGGGAGCAGUGACUGCGGUCACCCCUUUAGUUCUCUGGGUGUAGACCACACCACCUCCCACUGGGCACCCCCCA,0.399

# Series 2 — technique: RNA Bind-n-Seq; form: RNA; matrix: in vitro; concentration: 1 µM; setting: whole 134-nt RNA, ends assumed; with: 150 mM KCl; reference: input library; direction: higher = stronger binding
# Target: Ras GTPase-activating protein-binding protein 1, C-terminal RGG region (G3BP1, Homo sapiens, UniProt Q13283)
# UniProt Q13283, sequence (whole entry, looked up): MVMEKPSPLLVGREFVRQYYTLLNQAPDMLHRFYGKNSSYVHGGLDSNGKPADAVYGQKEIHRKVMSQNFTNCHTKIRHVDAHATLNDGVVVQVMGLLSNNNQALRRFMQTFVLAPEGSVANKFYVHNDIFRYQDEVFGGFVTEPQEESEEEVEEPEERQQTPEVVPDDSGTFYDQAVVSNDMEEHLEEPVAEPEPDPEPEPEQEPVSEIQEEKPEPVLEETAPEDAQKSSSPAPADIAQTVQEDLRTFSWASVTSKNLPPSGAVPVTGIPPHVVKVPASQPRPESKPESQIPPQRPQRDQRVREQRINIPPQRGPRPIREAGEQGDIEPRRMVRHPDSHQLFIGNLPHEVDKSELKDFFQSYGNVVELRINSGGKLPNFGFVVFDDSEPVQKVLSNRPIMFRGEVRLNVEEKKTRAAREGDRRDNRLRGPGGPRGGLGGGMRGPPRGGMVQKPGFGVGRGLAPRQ
# Shared flanks, not repeated: GGGAGUUCUACAGUCCGACGAUC … UGGAAUUCUCGGGUGUCAAGG
Strand,log2 enrichment
CAAGUCCUGUGCUACACAUCGUAUGUACCGAAUCGGUUUGGGGUUUGGUUUGGGGAAAGUAUUAUGUUACGCCGUUCGGAUCUGCACUUC,-0.862
UUGUGAGAGCCACAGGAAAAGCAAGAAGGAGAAGAAGAAAAAGAAAAAGAGGAAACACAAGAAAGAGAAGAAGAAGAAAGACAAAGAGCA,-0.735
GCAGGAAGUAAAAACAAAUGUAAAUGCUUCGGAUAGUGGCAGGGGUGGGGGUUGCUAAGGAAAGGGUGGGAUGGGAGUGGGUAAAGAGUU,2.13
UAACUUUAGAGGAGGAUCAGAUGGAUAUGGCAGUGGACGUGGAUUUGGGGAUGGCUAUAAUGGGUAUGGAGGAGGACCUGGAGGUGGCAA,-1.13
CACAGACAACACGCACCCACACAGACACAGAGGGAAGGGGUUGGGAUGGUGACAGGGUGCACAGCAGGGCGGGGUAGGACCCCAGCCCCU,-0.641
CCUGUGCUACACAUCGUAUGUACCGAAUCGGGGUUUUUGGGGAAAGGGGAAAAAAAGGGGAAAGUAUUAUGUUACGCCGUUCGGAUCUGC,0.165
UGGGAGGUGGAUUUUGUUUAUUUUUUUAGCUCAUUUCCAGGGGUGGGAAUCUUUUUUUAAUAUGUGUCAUGAAUAAAGUUGUUUUUGAAA,3.93
UGGCCCUGGUGGCAUGCGGGGAGGAAGAGGUGGCCUCAUGGAUCGUGGUGGUCCCGGUGGAAUGCUCAGAGGUGGCCGUGGUGGAGACAG,1.89
UGGCCCUGGUGGCAUGCGGGGAGGAAGAGGUGGCCUCAUGGAUCGUGGUGUUCCCGGUGGAAUGUUCAGAGGUGGCCGUGGUGGAGACAG,1.61

# Series 3 — technique: protein-binding microarray; form: double-stranded DNA, one strand shown; matrix: in vitro; concentration: not given; direction: higher = stronger binding
# Target: Protein max, full length (MAX, Homo sapiens, UniProt P61244-2, residues 1-151)
# Setting: k-mer, scored over probes, only values ≥0.25
Strand,E-score
ACATGCAA,0.331
ACATGTAC,0.344
ATCACGCA,0.327
ACGCACGC,0.421
ACCACGCT,0.444
CAGGTGAC,0.363
CCATGCAA,0.325
AATCCACG,0.306
CGTGGATA,0.329
CGTGAGAG,0.309
CACCTGGA,0.297
TGCATGCA,0.338
GGGCCGCA,0.252
ACGTTGAT,0.258
GACCACAC,0.284
CGTGCCGC,0.395
ACGTGCGA,0.447
GAGCATGC,0.408
AAACCACG,0.423
ACGTCACA,0.275
AAACACGA,0.309
ACGTCACG,0.347
AGAACGTG,0.4

# Series 4 — technique: protein-binding microarray; form: double-stranded DNA, one strand shown; matrix: in vitro; concentration: 940 nM top; setting: 60-bp whole probe; with: salmon DNA 0.4 mg/ml; reference: random background probes; direction: higher = stronger binding; shared flanks, not repeated: GCCTAGCAC … GTCTTGATTCGCTTGACGCTGCTG
# Target: Interferon regulatory factor 5, full length, phosphomimetic (IRF5, Homo sapiens, UniProt Q13568-2, residues 1-514, S451D/S453D/S456D/S462D)
Strand,fitted relative affinity [z-score]
GAGGGTTTCGGGTATCGGGACGTGCTA,7.32
GACGATTTCAGTATCGAGCCGTGCTAG,1.88
TTAGGTTCCGGTTTCCGTTAGTGCTAG,4.55
TTAGGACTAGACTTTCGGTTAGTGCTA,2.22
GACGGCATCCTTATCCTGACGTGCTAG,-0.399
TAGTTTTACTTTCTATCTCTGTGCTAG,3.34
GACGGTTTCGCTCTCGGGACGTGCTAG,8.73
AAAGATTTATCAAATGTGGGAGTGCTA,-0.59
ACGTTTTTCATTTTTTTTTTGTGCTAG,1.94
TTAGGTATAGACTATCGGTTAGTGCTA,-0.116
GACGGTTCGGGTTTCGGGACGTGCTAG,2.69
TCACTTTTGAGAGATGGAACTGTGCTA,-0.0032
GACGGTATCGGGTTTAGGGACGTGCTA,4.31
GACGGACTGGACTATCGGGCCGTGCTA,-0.75
GACGGTATCGGACTGCGGACGTGCTAG,2.84
TTAGGACTCGACTATCGGTTAGTGCTA,-0.0228
TCAGGAGTCATTCTCAAACTGTGCTAG,-0.123
TTAGAACTCAGTTTCGATTAGTGCTAG,8.57
GACGGACTGGGTGTCGGGACGTGCTAG,-0.54

# For quick reference, copied from above (series 4):
Strand,fitted relative affinity [z-score]
AAAGATTTATCAAATGTGGGAGTGCTA,-0.59
GAGGGTTTCGGGTATCGGGACGTGCTA,7.32
TCAGGAGTCATTCTCAAACTGTGCTAG,-0.123
GACGATTTCAGTATCGAGCCGTGCTAG,1.88
GACGGTATCGGACTGCGGACGTGCTAG,2.84
GACGGCATCCTTATCCTGACGTGCTAG,-0.399
GACGGTTTCGCTCTCGGGACGTGCTAG,8.73
